Earlier results, collected from citations in different studies.
Lines come from different studies, so protocols differ.
UniProt Q6ZWH5, sequence (whole entry, looked up): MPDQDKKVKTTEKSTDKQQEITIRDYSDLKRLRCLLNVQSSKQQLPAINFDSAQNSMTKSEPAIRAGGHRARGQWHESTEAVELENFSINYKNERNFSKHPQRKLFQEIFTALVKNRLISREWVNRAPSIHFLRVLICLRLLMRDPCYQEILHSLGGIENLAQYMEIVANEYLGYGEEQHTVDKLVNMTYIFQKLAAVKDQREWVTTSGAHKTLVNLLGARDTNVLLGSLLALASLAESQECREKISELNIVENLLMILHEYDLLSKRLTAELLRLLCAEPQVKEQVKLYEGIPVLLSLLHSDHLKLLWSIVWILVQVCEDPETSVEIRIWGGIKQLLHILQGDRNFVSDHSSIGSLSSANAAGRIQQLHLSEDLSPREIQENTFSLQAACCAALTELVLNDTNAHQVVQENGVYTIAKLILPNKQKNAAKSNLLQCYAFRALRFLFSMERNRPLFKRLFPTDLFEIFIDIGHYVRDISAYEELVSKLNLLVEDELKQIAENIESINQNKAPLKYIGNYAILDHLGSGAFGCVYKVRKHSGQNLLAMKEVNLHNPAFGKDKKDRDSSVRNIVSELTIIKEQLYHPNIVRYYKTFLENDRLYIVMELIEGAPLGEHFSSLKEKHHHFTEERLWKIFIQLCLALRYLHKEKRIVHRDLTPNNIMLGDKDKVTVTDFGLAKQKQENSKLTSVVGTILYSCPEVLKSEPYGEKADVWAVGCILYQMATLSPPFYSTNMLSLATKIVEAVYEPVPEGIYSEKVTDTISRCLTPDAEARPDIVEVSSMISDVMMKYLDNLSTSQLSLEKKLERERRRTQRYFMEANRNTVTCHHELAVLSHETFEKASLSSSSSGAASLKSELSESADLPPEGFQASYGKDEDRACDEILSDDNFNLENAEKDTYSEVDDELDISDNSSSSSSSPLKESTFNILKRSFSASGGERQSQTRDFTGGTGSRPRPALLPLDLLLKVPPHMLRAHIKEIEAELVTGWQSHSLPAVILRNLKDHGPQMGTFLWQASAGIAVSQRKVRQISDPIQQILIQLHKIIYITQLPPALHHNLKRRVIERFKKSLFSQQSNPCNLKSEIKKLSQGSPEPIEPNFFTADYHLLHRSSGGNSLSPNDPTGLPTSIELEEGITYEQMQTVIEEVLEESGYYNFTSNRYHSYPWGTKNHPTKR

CC(C)(C)c1cc(C(C)(C)C)c(NC(=O)c2c[nH]c3ccccc3c2=O)cc1O — absorption rate constant (human): 5.19 h⁻¹
COc1cc2c(Oc3ccc4[nH]c(C)cc4c3F)ccnc2cc1OCC1(N)CC1 — absorption extent (human; 5 mg, high-fat meal; relative to: fasted): ~80%
CN[C@H]1CC[C@@H](c2ccc(Cl)c(Cl)c2)c2ccccc21 — absorption rate constant (human; fixed in model): 0.5 h⁻¹
O=C(NC[C@H]1CN(c2ccc(N3CCOCC3=O)cc2)C(=O)O1)c1ccc(Cl)s1 — absorption rate constant (human; Model B fixed): 0.82 h⁻¹
C[C@@H]1CCO[C@H]2Cn3cc(C(=O)NCc4ccc(F)cc4F)c(=O)c(O)c3C(=O)N12 — absorption lag time (population PK model; adult humans): 0.263 h
CC1(C)CCC(CN2CCN(c3ccc(C(=O)NS(=O)(=O)c4ccc(NCC5CCOCC5)c([N+](=O)[O-])c4)c(Oc4cnc5[nH]ccc5c4)c3)CC2)=C(c2ccc(Cl)cc2)C1 — absorption rate constant (Ka) (legacy population PK model; human): 3.72 day⁻¹
Cc1nn(C)cc1S(=O)(=O)NC(=O)c1ccc(-n2ccc(OCC(C)(C)C(F)(F)F)n2)nc1N1C[C@@H](C)CC1(C)C — absorption rate constant (human): 0.59 h⁻¹
CC1(C)S[C@@H]2[C@H](NC(=O)[C@H](N)c3ccc(O)cc3)C(=O)N2[C@H]1C(=O)O — absorption rate constant (population PK; human): 0.091 h⁻¹
Cn1ncnc1[C@H]1c2n[nH]c(=O)c3cc(F)cc(c23)N[C@@H]1c1ccc(F)cc1 — absorption rate constant (human): 1.22 h⁻¹
Nc1cc(C(F)(F)F)c(-c2nc(N3CCOCC3)nc(N3CCOCC3)n2)cn1 — remaining activity (NEK10 (Homo sapiens, UniProt Q6ZWH5); enzyme activity; 10 µM; relative to: untreated): 100%

A few entries again:
Cn1ncnc1[C@H]1c2n[nH]c(=O)c3cc(F)cc(c23)N[C@@H]1c1ccc(F)cc1 — absorption rate constant (human): 1.22 h⁻¹
